Literature values that unrelated publications cite.
Each line is one published result; not all experiments were run side by side. ± marks the error that the study gave.
Chrna3/Chrnb2/Chrna6 with beta3 subunit: Chrna3/Chrnb2/Chrna6, with beta3 subunit (Rattus norvegicus, UniProt P04757+P12390+P43143)
OPRM1: Mu-type opioid receptor (OPRM1, Homo sapiens, UniProt P35372)

Sequences of proteins named here, by UniProt entry; tags and fusion partners are left off.
UniProt P04757, whole entry, looked up: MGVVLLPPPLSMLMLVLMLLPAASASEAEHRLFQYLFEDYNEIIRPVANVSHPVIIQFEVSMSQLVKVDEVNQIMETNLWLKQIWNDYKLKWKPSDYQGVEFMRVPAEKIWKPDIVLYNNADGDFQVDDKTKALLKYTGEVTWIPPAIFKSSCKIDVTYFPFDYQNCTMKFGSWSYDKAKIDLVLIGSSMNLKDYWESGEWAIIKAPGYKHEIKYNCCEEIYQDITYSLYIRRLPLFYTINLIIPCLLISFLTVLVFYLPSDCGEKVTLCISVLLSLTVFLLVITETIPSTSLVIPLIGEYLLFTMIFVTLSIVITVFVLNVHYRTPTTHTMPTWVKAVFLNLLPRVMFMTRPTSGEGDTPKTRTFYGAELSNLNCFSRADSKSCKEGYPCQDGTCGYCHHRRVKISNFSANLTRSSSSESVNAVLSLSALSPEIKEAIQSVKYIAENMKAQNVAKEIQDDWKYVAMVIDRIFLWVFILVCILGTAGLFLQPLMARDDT
UniProt P12390, whole entry, looked up: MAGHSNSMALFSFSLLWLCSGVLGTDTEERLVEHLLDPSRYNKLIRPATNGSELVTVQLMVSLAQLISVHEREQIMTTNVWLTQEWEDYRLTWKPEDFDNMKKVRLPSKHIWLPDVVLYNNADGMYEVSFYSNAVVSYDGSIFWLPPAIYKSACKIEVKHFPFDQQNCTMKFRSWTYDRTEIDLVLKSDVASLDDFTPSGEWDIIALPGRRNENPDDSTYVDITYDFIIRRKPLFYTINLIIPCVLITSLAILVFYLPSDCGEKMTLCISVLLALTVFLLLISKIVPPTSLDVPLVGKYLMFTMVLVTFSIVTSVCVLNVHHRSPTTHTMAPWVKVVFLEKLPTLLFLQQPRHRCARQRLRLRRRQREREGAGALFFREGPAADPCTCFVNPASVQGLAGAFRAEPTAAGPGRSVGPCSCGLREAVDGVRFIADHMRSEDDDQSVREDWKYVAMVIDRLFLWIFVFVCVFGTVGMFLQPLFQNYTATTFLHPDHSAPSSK
UniProt P43143, whole entry M241L/F253L/V303I/V320I/I327V/A333T/K339T, looked up: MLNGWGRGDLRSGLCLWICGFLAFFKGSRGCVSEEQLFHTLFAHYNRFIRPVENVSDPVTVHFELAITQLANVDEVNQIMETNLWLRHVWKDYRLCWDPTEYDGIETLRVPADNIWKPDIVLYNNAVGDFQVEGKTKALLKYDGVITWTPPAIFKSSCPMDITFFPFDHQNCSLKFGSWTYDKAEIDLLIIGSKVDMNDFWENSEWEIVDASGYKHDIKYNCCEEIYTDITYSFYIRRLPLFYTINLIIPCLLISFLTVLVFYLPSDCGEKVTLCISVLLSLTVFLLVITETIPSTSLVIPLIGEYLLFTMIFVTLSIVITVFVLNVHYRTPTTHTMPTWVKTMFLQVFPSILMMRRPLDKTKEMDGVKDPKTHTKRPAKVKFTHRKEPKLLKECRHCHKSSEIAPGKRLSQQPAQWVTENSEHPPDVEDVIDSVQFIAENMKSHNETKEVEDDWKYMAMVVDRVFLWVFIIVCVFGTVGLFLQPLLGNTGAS
UniProt P35372, whole entry: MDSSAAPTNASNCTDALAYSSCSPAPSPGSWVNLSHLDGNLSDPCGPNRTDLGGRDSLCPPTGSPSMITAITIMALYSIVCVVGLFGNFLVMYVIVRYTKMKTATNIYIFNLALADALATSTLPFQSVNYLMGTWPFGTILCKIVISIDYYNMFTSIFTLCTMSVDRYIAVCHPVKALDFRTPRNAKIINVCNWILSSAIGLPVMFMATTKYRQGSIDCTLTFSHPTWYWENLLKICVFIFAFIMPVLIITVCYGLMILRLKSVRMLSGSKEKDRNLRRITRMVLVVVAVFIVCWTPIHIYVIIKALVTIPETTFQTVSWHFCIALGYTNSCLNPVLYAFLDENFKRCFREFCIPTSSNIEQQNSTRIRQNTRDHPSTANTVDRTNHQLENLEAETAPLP
UniProt P21554, whole entry: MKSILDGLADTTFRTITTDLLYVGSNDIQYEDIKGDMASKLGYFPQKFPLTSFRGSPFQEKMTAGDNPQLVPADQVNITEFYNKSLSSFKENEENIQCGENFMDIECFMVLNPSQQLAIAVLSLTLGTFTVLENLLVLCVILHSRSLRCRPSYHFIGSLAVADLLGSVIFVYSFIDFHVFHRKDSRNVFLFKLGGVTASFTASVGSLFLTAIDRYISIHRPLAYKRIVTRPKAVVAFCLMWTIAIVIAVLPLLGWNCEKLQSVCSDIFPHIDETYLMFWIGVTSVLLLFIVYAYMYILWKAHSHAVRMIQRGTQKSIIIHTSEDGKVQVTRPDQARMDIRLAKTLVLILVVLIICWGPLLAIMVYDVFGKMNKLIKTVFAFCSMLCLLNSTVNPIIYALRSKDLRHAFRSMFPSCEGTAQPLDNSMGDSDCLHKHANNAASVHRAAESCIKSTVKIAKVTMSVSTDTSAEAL
UniProt P22303, whole entry, looked up: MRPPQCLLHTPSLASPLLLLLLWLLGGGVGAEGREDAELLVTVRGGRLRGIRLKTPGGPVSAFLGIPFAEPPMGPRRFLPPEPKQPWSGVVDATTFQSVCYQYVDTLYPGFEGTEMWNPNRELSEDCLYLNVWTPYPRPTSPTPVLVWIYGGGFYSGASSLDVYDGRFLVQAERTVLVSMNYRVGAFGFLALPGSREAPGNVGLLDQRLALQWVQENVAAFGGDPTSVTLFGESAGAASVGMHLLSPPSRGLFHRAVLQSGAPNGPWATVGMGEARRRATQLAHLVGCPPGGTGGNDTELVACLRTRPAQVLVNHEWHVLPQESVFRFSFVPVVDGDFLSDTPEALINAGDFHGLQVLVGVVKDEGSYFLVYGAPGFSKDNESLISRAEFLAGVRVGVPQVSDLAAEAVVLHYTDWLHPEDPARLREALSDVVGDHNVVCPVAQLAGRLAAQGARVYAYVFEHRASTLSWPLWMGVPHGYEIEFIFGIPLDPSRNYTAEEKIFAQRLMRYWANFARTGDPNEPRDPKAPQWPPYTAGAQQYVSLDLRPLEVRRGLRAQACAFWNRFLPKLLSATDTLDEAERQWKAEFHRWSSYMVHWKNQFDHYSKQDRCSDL
UniProt P35462, whole entry: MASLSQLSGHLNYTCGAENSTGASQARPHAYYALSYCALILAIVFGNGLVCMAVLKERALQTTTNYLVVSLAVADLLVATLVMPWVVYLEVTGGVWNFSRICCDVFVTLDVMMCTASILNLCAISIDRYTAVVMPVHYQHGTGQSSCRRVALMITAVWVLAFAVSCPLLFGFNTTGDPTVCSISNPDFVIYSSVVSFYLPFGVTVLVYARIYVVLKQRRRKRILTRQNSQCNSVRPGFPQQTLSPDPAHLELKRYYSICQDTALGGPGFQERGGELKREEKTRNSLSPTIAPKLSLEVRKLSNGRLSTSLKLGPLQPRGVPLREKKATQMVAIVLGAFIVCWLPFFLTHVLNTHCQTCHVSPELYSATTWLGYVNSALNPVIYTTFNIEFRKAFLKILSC
UniProt O42275, whole entry, looked up: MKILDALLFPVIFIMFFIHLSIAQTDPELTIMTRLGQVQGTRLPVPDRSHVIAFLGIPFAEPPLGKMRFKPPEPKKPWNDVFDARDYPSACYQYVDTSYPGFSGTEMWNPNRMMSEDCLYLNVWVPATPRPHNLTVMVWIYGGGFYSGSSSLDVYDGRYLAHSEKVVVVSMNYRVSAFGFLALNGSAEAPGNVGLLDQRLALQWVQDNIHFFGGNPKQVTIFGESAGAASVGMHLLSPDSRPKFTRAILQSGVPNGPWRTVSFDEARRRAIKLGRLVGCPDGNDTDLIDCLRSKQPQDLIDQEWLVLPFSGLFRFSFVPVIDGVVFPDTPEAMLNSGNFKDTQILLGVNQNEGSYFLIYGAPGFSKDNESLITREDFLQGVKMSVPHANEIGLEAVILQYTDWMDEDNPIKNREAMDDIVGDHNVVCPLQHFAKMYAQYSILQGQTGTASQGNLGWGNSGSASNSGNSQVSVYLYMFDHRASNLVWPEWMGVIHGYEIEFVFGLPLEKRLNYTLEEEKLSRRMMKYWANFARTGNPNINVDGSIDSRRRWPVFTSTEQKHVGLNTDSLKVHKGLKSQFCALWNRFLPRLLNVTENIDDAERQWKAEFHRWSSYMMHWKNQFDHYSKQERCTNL
UniProt Q01959, whole entry: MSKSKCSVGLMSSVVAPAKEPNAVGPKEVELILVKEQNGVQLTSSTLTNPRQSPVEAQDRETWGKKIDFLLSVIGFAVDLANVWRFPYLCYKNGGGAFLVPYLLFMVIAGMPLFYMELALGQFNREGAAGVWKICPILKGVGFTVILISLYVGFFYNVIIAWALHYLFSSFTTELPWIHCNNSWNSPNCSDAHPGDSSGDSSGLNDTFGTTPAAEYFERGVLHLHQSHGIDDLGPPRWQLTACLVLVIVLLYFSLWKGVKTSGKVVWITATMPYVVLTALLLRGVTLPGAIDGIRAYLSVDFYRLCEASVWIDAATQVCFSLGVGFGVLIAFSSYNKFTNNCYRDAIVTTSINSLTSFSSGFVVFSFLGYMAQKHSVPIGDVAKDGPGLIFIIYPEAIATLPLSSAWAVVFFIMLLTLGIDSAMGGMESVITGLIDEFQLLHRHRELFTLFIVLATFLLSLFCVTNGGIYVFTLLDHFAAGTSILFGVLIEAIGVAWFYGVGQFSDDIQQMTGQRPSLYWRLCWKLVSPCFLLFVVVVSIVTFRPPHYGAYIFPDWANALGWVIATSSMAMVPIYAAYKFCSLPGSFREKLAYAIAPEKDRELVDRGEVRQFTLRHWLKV
UniProt P41145, whole entry: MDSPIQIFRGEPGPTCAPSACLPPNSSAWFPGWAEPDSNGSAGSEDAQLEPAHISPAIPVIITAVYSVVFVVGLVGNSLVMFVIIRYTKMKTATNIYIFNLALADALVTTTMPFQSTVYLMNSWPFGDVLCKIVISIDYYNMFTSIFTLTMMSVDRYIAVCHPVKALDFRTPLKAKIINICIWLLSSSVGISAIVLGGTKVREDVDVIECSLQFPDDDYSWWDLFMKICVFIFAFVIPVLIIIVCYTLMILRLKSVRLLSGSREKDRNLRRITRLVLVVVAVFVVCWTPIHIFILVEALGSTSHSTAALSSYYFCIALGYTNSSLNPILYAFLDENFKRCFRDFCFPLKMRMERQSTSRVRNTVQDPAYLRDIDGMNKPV

Molecule	target	assay	system	quantity	value
CCOc1ccc(Cc2nc3cc(C(=O)N(CC)CC)ccc3n2CCC(C)C)cc1	Cannabinoid receptor 1 (CNR1, Homo sapiens, UniProt P21554)	binding	–	Ki	> 5 µM
dimethyl sulfoxide	Acetylcholinesterase (ACHE, Homo sapiens, UniProt P22303)	–	–	Ki	88700 µM
CC(C)C[C@@H]1NC(=O)[C@H](CCC(=O)O)NC(=O)[C@@H]2CCCN2C(=O)[C@H](Cc2c[nH]cn2)NC(=O)[C@H](CC(N)=O)NC(=O)[C@H](C)NC(=O)[C@H](CO)NC(=O)[C@@H]2CSSC[C@H](NC(=O)CN)C(=O)N[C@@H](CSSC[C@@H](C(N)=O)NC1=O)C(=O)N[C@@H](CO)C(=O)N[C@@H](Cc1c[nH]cn1)C(=O)N1CCC[C@H]1C(=O)N[C@@H](C)C(=O)N2	Chrna3/Chrnb2/Chrna6 with beta3 subunit	antagonist	–	IC50	0.0024 µM
[3H]DAMGO	OPRM1	binding, radioligand, radioligand saturation binding	–	Kd	0.00172 ± 0.000258 µM
Clc1ccc(N2CCN(Cc3cnn4ccccc34)CC2)cc1	D(3) dopamine receptor (DRD3, Homo sapiens, UniProt P35462)	binding	–	Ki	5 ± 0.121 µM
NC(=O)[C@H](Cc1ccccc1)NC(=O)[C@H](CCCN=C(N)N)NC(=O)C12CC3CC(CC(C3)C1)C2	OPRM1	binding	–	Ki	> 5 µM
CNC(=O)/C=C(\C)OP(=O)(OC)OC	Acetylcholinesterase (ache, Electrophorus electricus, UniProt O42275)	enzyme activity, inhibitor	–	IC50	~10 µM
CN[C@@H](C)Cc1ccccc1	Sodium-dependent dopamine transporter (SLC6A3, Homo sapiens, UniProt Q01959)	[3H]dopamine release, releaser	HEK293 expressing target	EC50	0.435 µM
COC(=O)[C@@H]1C[C@H](OC(=O)CSC#N)C(=O)[C@H]2[C@@]1(C)CC[C@H]1C(=O)O[C@H](c3ccoc3)C[C@]21C	Kappa-type opioid receptor (OPRK1, Homo sapiens, UniProt P41145)	binding	–	Ki	0.0006 ± 0.0002 µM
CC(C)C[C@@H]1NC(=O)[C@H](CCC(=O)O)NC(=O)[C@@H]2CCCN2C(=O)[C@H](Cc2c[nH]cn2)NC(=O)[C@H](CC(N)=O)NC(=O)[C@H](CC(C)C)NC(=O)[C@H](CO)NC(=O)[C@@H]2CSSC[C@H](NC(=O)CN)C(=O)N[C@@H](CSSC[C@@H](C(N)=O)NC1=O)C(=O)N[C@@H](CO)C(=O)N[C@@H](Cc1c[nH]cn1)C(=O)N1CCC[C@H]1C(=O)N[C@@H](C)C(=O)N2	Chrna3/Chrnb2/Chrna6 with beta3 subunit	antagonist	–	IC50	0.0188 µM

Excerpt of the above:
Molecule	target	assay	system	quantity	value
COC(=O)[C@@H]1C[C@H](OC(=O)CSC#N)C(=O)[C@H]2[C@@]1(C)CC[C@H]1C(=O)O[C@H](c3ccoc3)C[C@]21C	Kappa-type opioid receptor (OPRK1, Homo sapiens, UniProt P41145)	binding	–	Ki	0.0006 ± 0.0002 µM
